Measured values gathered from unrelated publications.
Lines come from different studies, so protocols differ. ± gives the spread as reported.

COc1cc(O)cc(/C=C/c2ccccc2)c1 — IC50 (Sp1 (human); reporter gene, inhibitor; SW1353; control transcription factor): 23 µg/mL
CCCCCCCCCCCCSC[C@H]1O[C@H](O[C@@H]2[C@@H](O)[C@H](O[C@H]3O[C@H](CN)[C@@H](O)C[C@H]3N)[C@@H](N)C[C@H]2N)[C@H](O)[C@@H](N)[C@@H]1O — IC50 (Escherichia coli ribosome wild type; EF-G-dependent translocation, inhibitor, toeprinting): > 1000 µM
NC[C@@H]1O[C@H](O[C@H]2[C@@H](O)[C@H](O[C@@H]3[C@@H](O)[C@H](N)C[C@H](N)[C@H]3O[C@H]3O[C@H](CO)[C@@H](O)[C@H](O)[C@H]3N)O[C@@H]2CO)[C@H](N)[C@@H](O)[C@@H]1O — IC50 (Mycobacterium smegmatis ribosome G1491C; translation, cell-free luciferase synthesis): 10.4 ± 2.86 µg/mL
O=C/C=C/c1ccccc1 — IC50 (lysine-containing peptide; peptide depletion, mass spectrometry; 24 h, pH 10.2, room temperature, with: lysine peptide 0.5 mM): 550 µM
CNC(=O)CCC[C@@H](C)C[C@@H](OC(=O)[C@H](C)CCCC(=O)O)C(C)(C)C — IC50 (voltage-gated sodium channels; veratridine-stimulated Na+ influx, antagonist, SBFI fluorescence; primary mouse cerebrocortical neurons): > 10 µM
NC[C@H]1O[C@H](O[C@H]2[C@H](O)[C@@H](O[C@H]3O[C@H](CSc4ccccc4F)[C@@H](O)[C@H](N)[C@H]3O)[C@H](N)C[C@@H]2N)[C@H](N)C[C@@H]1O — IC50 (Escherichia coli ribosome, wild type; EF-G-dependent translocation, inhibitor, toeprinting; first inflection, biphasic fit): < 1 µM
CC(C)/C=C/c1c(O)cc(/C=C/c2ccc(O)cc2)cc1O — IC50 (Sp1 (human); reporter gene, inhibitor; SW1353; control transcription factor): > 25 µg/mL
NC[C@@H]1O[C@H](O[C@H]2[C@@H](O)[C@H](O[C@@H]3[C@@H](O)[C@H](N)C[C@H](N)[C@H]3O[C@H]3O[C@@H]4CO[C@@H](CCc5ccccc5)O[C@H]4[C@H](O)[C@H]3N)O[C@@H]2CO)[C@H](N)[C@@H](O)[C@@H]1O — IC50 (Mycobacterium smegmatis ribosome G1491C; translation, cell-free luciferase synthesis): 124.1 ± 0.1 µg/mL
Oc1ccc(/C=C/c2cc(O)cc(O)c2)cc1 — IC50 (Sp1 (human); reporter gene, inhibitor; SW1353; control transcription factor): > 25 µg/mL
CONC(=O)[C@H]1[C@@H](O)[C@@]2(O)c3c(OC)cc(OC)cc3O[C@@]2(c2ccc(OC)cc2)[C@@H]1c1ccccc1 — IC50 (eIF4A; cap-dependent translation, inhibitor, in vitro translation, bicistronic reporter, refers to: firefly luciferase; Krebs-2 cell-free extract; relative to: Renilla luciferase (HCV IRES)): 0.272 µM
NC[C@@H]1O[C@H](O[C@H]2[C@@H](O)[C@H](O[C@@H]3[C@@H](O)[C@H](N)C[C@H](N)[C@H]3O[C@H]3O[C@H](CO)C[C@H](O)[C@H]3N)O[C@@H]2CO)[C@H](N)[C@@H](O)[C@@H]1O — IC50 (Mycobacterium smegmatis ribosome G1491C; translation, cell-free luciferase synthesis): 28.6 ± 0.9 µg/mL
Oc1cccc(CCc2ccccc2)c1 — IC50 (Sp1 (human); reporter gene, inhibitor; SW1353; control transcription factor): > 25 µg/mL
C/C=C1\NC(=O)[C@@H](NC(=O)[C@@H](NC(=O)[C@@H](COS(=O)(=O)O)OC)C(C)C)[C@@H](C)OC(=O)[C@H]([C@H](C)CC)NC(=O)[C@H](Cc2ccccc2)N(C)C(=O)[C@H](Cc2ccccc2)N2C(=O)[C@H](CC[C@H]2O)NC1=O — IC50 (serine proteases panel): ≥ 10 µM
Oc1ccc(/C=C/c2ccccc2)cc1O — IC50 (Sp1 (human); reporter gene, inhibitor; SW1353; control transcription factor): > 25 µg/mL
COc1cc2c(cc1OC)-c1cc3ccc(OC)c(OC)c3c[n+]1CC2 — IC50 (class I HDAC; enzyme activity; bovine heart lysate): 27 µM
CCCCCCCCCCCCCCCCCCSC[C@H]1O[C@H](O[C@@H]2[C@@H](O)[C@H](O[C@H]3O[C@H](CN)[C@@H](O)C[C@H]3N)[C@@H](N)C[C@H]2N)[C@H](O)[C@@H](N)[C@@H]1O — IC50 (Escherichia coli ribosome wild type; EF-G-dependent translocation, inhibitor, toeprinting): > 1000 µM
C=C1C(=O)O[C@H]2[C@H]1CC/C(C)=C/CC[C@@]1(C)O[C@@H]21 — IC50 (Sp1 (human); reporter gene, inhibitor; SW1353; control transcription factor): 8.35 µg/mL
C[C@@H]1CCCC(=O)N(C)/C=C/CC[C@H](C)C(=O)O[C@@H](C(C)(C)C)C1 — IC50 (voltage-gated sodium channels; veratridine-stimulated Na+ influx, antagonist, SBFI fluorescence; primary mouse cerebrocortical neurons): > 10 µM
CC(C)/C=C/c1c(O)cc(/C=C/c2ccc(O)c(O)c2)cc1O — IC50 (Sp1 (human); reporter gene, inhibitor; SW1353; control transcription factor): > 25 µg/mL
myricitrin — IC50 (class IIb HDAC (bovine); enzyme activity, inhibitor; bovine heart tissue lysate): 20 µM
CC(C)(O)C(O)Cc1c(O)cc(/C=C/c2ccccc2)cc1O (stereo not drawn) — IC50 (Sp1 (human); reporter gene, inhibitor; SW1353; control transcription factor): > 25 µg/mL
NCC1OC(OC2C(CO)OC(OC3C(O)C(N)CC(N)C3OC3OC(CO)C(OCCCc4ccccc4)C(O)C3N)C2O)C(N)C(O)C1O (stereo not drawn) — IC50 (Mycobacterium smegmatis ribosome G1491C; translation, cell-free luciferase synthesis): 201 ± 25.8 µg/mL
CN[C@@H]1[C@@H](O)[C@@H](O[C@@H]2[C@@H](O)[C@H](O[C@H]3O[C@H]([C@@H](C)O)[C@@H](O)[C@H](O)[C@H]3N)[C@@H](N)C[C@H]2N)OC[C@]1(C)O — IC50 (Leishmania tarentolae ribosome; cell-free translation, inhibitor, refers to: EGFP reporter; Leishmania tarentolae S30 extract): 0.19 ± 0.03 µM
COC(=O)Nc1nc2ccc(C(=O)c3cccs3)cc2[nH]1 — IC50 (tubulin, bovine brain; tubulin assembly, inhibitor; 37 °C, tubulin 5 µM, 2% DMSO, with: paclitaxel 5 µM): 7.7 ± 0.2 µM
CNC(=O)CCC[C@@H](C)C[C@@H](OC(=O)[C@H](C)CCCCO)C(C)(C)C — IC50 (voltage-gated sodium channels; veratridine-stimulated Na+ influx, antagonist, SBFI fluorescence; primary mouse cerebrocortical neurons): > 10 µM
NC[C@H]1O[C@H](O[C@H]2[C@H](O)[C@@H](O[C@H]3O[C@H](CO)[C@@H](O)[C@H](N)[C@H]3O)[C@H](N)C[C@@H]2N)[C@H](N)C[C@@H]1O — IC50 (Escherichia coli ribosome wild type; EF-G-dependent translocation, inhibitor, toeprinting): 16 µM
O=C(O)C(=O)CBr — IC50 (HDAC from MCF7 cells; inhibitor): 56 ± 11 µM

Some of these lines once more:
CCCCCCCCCCCCCCCCCCSC[C@H]1O[C@H](O[C@@H]2[C@@H](O)[C@H](O[C@H]3O[C@H](CN)[C@@H](O)C[C@H]3N)[C@@H](N)C[C@H]2N)[C@H](O)[C@@H](N)[C@@H]1O — IC50 (Escherichia coli ribosome wild type; EF-G-dependent translocation, inhibitor, toeprinting): > 1000 µM
C/C=C1\NC(=O)[C@@H](NC(=O)[C@@H](NC(=O)[C@@H](COS(=O)(=O)O)OC)C(C)C)[C@@H](C)OC(=O)[C@H]([C@H](C)CC)NC(=O)[C@H](Cc2ccccc2)N(C)C(=O)[C@H](Cc2ccccc2)N2C(=O)[C@H](CC[C@H]2O)NC1=O — IC50 (serine proteases panel): ≥ 10 µM
CC(C)(O)C(O)Cc1c(O)cc(/C=C/c2ccccc2)cc1O (stereo not drawn) — IC50 (Sp1 (human); reporter gene, inhibitor; SW1353; control transcription factor): > 25 µg/mL
